Assay results from different studies.
Each line is one published result; not all experiments were run side by side. pIC50: −log10 of the molar value.
Cell line: human Fibroblast
Observed: cell growth or viability

`C[C@]12CC/C(=N\OCCN3CCOCC3)C=C1CCC1C2CC[C@]2(C)/C(=C/c3ccccn3)CCC12` (stereo partly shown) has a pIC50 of under 4.30 (resazurin; 72 h).
For `CSc1ccccc1NC(=O)c1[nH]c2cc(C)sc2c1CN1CCOCC1`, the pIC50 was under 4.70 (SRB).
`COc1ccc(/N=N/C(=S)N2CCCC2)cc1` gave a pIC50 of under 4.30 (resazurin; 48 h).
For `O=c1[nH]c(=O)n([C@@H]2O[C@H](CSSc3ccccn3)[C@@H](O)[C@H](F)[C@H]2O)cc1F`, the pIC50 was 4.44.
`C[C@]1([N+](=O)[O-])C(=O)c2ccccc2O[C@@H]1CC(=O)Nc1nc2ccccc2s1` has a pIC50 of under 4.00 (SRB; 96 h).
The pIC50 of `CN(C)CCCO/N=C1/C=C2CCC3C(CC[C@]4(C)/C(=C/c5ccccn5)CCC34)[C@@]2(C)CC1` (stereo partly shown) is reported as 5.12 (resazurin; 72 h).
`COC1CCC(Nc2nc(-c3nccn3C)nc3sc(-c4ccn(C)n4)c(-c4ccccc4)c23)C1` (stereo not shown) has a pIC50 of 6.52 (72 h).
For `C[C@]1([N+](=O)[O-])C(=O)c2ccccc2O[C@@H]1CC(=O)OC1CCCCC1`, the pIC50 was under 4.00 (SRB; 96 h).
With `C[C@]12CC/C(=N\OCCN3CCCC3)C=C1CCC1C2CC[C@]2(C)/C(=C/c3ccccn3)CCC12` (stereo partly shown) the pIC50 was 4.60 (resazurin; 72 h).
For `CCCCOC(=O)C[C@H]1Oc2ccccc2C(=O)[C@]1(C)[N+](=O)[O-]`, the pIC50 was under 4.00 (SRB; 96 h).
The pIC50 of `COc1ccc(/N=N/C(=S)N2CCN(C)CC2)cc1` is reported as under 4.30 (resazurin; 48 h).
With `C[C@]12CC/C(=N\OCCN3CCCCC3)C=C1CCC1C2CC[C@]2(C)/C(=C/c3ccccn3)CCC12` (stereo partly shown) the pIC50 was 4.70 (resazurin; 72 h).
`C[C@]1([N+](=O)[O-])C(=O)c2ccccc2O[C@@H]1CC(=O)O` gave a pIC50 of under 4.00 (SRB; 96 h).
`CN1CCCC1CCO/N=C1/C=C2CCC3C(CC[C@]4(C)/C(=C/c5ccccn5)CCC34)[C@@]2(C)CC1` (stereo partly shown) has a pIC50 of 4.56 (resazurin; 72 h).
With `Cc1ccc2c(c1)C(=O)[C@](C)([N+](=O)[O-])[C@@H](CC(=O)NC13CC4CC(CC(C4)C1)C3)O2` the pIC50 was under 4.00 (SRB; 96 h).
For `Cc1cc2[nH]c(C(=O)Nc3cc(F)ccc3Cl)c(CN(C)C)c2s1`, the pIC50 was under 4.70 (SRB).

Excerpt of the above:
`COC1CCC(Nc2nc(-c3nccn3C)nc3sc(-c4ccn(C)n4)c(-c4ccccc4)c23)C1` (stereo not shown) has a pIC50 of 6.52 (72 h).
With `C[C@]12CC/C(=N\OCCN3CCCCC3)C=C1CCC1C2CC[C@]2(C)/C(=C/c3ccccn3)CCC12` (stereo partly shown) the pIC50 was 4.70 (resazurin; 72 h).
`CN1CCCC1CCO/N=C1/C=C2CCC3C(CC[C@]4(C)/C(=C/c5ccccn5)CCC34)[C@@]2(C)CC1` (stereo partly shown) has a pIC50 of 4.56 (resazurin; 72 h).
